Measurements collected from several papers.
Every numbered part comes from another study and shows a few of its results, in no order. Changes are numbered by the printed parent chain.

Set 1
Target: CCNB2, cyclin fold, Cln2 fusion (human)
Technique: yeast growth competition, sequencing
Matrix: yeast
Setting: weak parent motif
Reference: not given
Reading: higher = stronger binding
Endpoint: normalised enrichment score
Starting sequence: SLBP docking peptide (human); ARYKRKLLINDFG; partner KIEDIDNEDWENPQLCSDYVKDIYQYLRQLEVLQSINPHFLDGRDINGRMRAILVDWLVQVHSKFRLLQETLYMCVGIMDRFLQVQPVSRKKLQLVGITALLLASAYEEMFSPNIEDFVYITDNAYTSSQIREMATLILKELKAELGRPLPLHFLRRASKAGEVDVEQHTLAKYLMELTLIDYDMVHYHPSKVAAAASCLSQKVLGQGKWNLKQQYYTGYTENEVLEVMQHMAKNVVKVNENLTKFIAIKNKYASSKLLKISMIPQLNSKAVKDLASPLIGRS
ARYNRKLLINDFG [K4N]: 0.57
AYYKRKLLINDFG [R2Y]: 0.84
AHYKRKLLINDFG [R2H]: 0.616
ARCKRKLLINDFG [Y3C]: 0.124
ARYKVKLLINDFG [R5V]: 0.723
ARYKRKLLINYFG [D11Y]: 0.915
ARYKKKLFINDFG [R5K L8F]: 0.228
ARYKEKLLINDFG [R5E]: 0.0689
ARYKRKLLINDAG [F12A]: 0.0265
ARYKRNLLINDFG [K6N]: 0.544
ARYKRKLLIEDFG [N10E]: 1.36
ARYKRKLLFNDFG [I9F]: 0.375
ARYKDKLLINDFG [R5D]: -0.0393
ARYHRKLLINDFG [K4H]: 0.825
ARYKRKVLINDFG [L7V]: 0.716
ARYKRKLHINDFG [L8H]: 0.446
ARYKRKLLDNDFG [I9D]: 0.375
ARYKRKLLINWFG [D11W]: -0.147
ARYKRKLLENDFG [I9E]: 0.509
ARYKRYLLINDFG [K6Y]: 0.727
ARYKRKLLINDLG [F12L]: 0.806
ARYKFKLLINDFG [R5F]: -0.129
ARYKRSLLINDFG [K6S]: 0.378
ARYKYKLLINDFG [R5Y]: 0.518
ARYKRKLLINDCG [F12C]: 0.202

Set 2
Target: Histone acetyltransferase KAT6A, both winged helices, GST fusion (KAT6A, Homo sapiens, UniProt Q92794, residues 1-181)
Technique: protein binding microarray
Molecule type: double-stranded DNA, one strand shown
Matrix: in vitro
Concentration: not given
Setting: 8-mer, flanks averaged, mean of 2 arrays, mostly near background
Reference: not given
Reading: higher = stronger binding
Endpoint: E-score
Residues (chain): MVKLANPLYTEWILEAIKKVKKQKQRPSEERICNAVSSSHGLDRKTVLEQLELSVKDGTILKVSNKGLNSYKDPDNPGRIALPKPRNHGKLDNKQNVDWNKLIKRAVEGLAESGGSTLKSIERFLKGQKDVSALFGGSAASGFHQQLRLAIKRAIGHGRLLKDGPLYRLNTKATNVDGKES
GAATTATA: 0.0446
ATATGTAG: -0.149
ACAGCTCA: -0.0955
ACGCATCG: 0.184
CTATGACA: 0.027
AGTCTATC: -0.0946
CATGTGAG: -0.0956
CCTCTAAG: -0.0679
GATGTGGA: 0.0215
AGTCCTAT: -0.117
AACGCAGC: 0.0835
AAGTATCG: -0.0437
CCGCTATC: 0.162
ATTAAGCG: 0.12
TCGACCGA: 0.129
ATCCGCAG: 0.133
TTACAAAA: 0.0658
AAAAAACA: -0.0611
CGGGTTCC: 0.247
ACAGGAGA: -0.17
ACAGAGCA: -0.206

Set 3
Target: Phosphate system positive regulatory protein PHO4, full length, GST-tagged (PHO4, Saccharomyces cerevisiae, UniProt P07270, residues 1-312)
Technique: competition protein-binding microarray
Molecule type: double-stranded DNA, one strand shown
Matrix: in vitro
Concentration: 2 µM
Setting: whole 60-bp probe, lowest competitor level
Added: Cbf1 competitor, 0.05 µM
Reading: higher = stronger binding
Endpoint: fluorescence intensity
Shared flanks, not repeated: … GTCTTGATTCGCTTGACGCTGCTG
Residues (chain): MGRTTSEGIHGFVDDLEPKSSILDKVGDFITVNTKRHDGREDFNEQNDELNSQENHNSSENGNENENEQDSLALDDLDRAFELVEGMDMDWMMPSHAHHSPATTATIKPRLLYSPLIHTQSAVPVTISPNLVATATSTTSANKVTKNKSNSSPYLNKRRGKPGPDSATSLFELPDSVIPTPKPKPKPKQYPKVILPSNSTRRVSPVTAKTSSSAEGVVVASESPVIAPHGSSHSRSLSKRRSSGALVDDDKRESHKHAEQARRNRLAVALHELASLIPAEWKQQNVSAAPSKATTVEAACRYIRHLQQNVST
ATTTTTCCTGTCCTGCAATTGTTCTCGAGGATTGCT: 3150 a.u.
GATGATGTTGGTTTGACCGTGATGGATGTCCAAGTA: 5040 a.u.
CCATTAAAAATAATATGTGTGATATTCTTCCACACG: 5980 a.u.
CTTTCCCGATCTTTTCACGTGATGTTAGCACATTTG: 13600 a.u.
GTCTTGTCTCATTGCGTCGTGGGTGTCCCCACTTCA: 7120 a.u.
TGGTTGGCATCTTATCCCGTGGTGAATCCATTACCA: 7820 a.u.
CGCGATGTTCTCAGCATCGTGTAACCTTTGCTCGTA: 7170 a.u.
AAAGACCTGTCGAGTCACGTTCGTTCAACTGTAGTG: 9240 a.u.
CGTCCTAGTGATTGTCACAGCACTTCCATGAGGAAG: 4770 a.u.
TTTCCAGGCCCAGCGAGCGTGCTTTGCAAGAGGATC: 6300 a.u.
AAATTACTAAGTTTTCACGTGTATTACCCCGTATGA: 14700 a.u.

Further values, each from its own experiment
PhoQ, residues 284 288 289 292 302 303 SLKLQV — fold induction (PhoP, residues 12 14 15 18 19 TTLRV (Escherichia coli, UniProt P23836); Sort-seq, refers to: YFP reporter; E. coli; PhoQ-PhoP variant library, added: 10 µM Mg2+; reference: high Mg2+ state, higher = stronger signaling): 13

Excerpt of the above (set 2):
ATTAAGCG: 0.12
TCGACCGA: 0.129
ATCCGCAG: 0.133
